Measured values collected from several papers.
Method: steady-state kinetics
B1: enzyme (Streptomyces purpurascens, UniProt Q54527); chain MSSSSPGEPLEPTDQDLDVLLKNLGNLVTPMALRVAATLRLVDHLLAGADTLAGLADRTDTHPQALSRLVRHLTVVGVLEGGEKQGRPLRPTRLGMLLADGHPAQQRAWLDLNGAVSHADLAFTGLLDVVRTGRPAYAGRYGRPFWEDLSADVALADSFDALMSCDEDLAYEAPADAYDWSAVRHVLDVGGGNGGMLAAIALRAPHLRGTLVELAGPAERARRRFADAGLADRVTVAEGDFFKPLPVTADVVLLSFVLLNWSDEDALTILRGCVRALEPGGRLLVLDRADVEGDGADRFFSTLLDLRMLTFMGGRVRTRDEVVDLAGSAGLALASERTSGSTTLPFDFSILEFTAVSEEAAPAAQASEALPAQE
B2: sacB S173G (Priestia megaterium, UniProt D5DC07); chain KGNDSKDFNNSYGISHITRDNMVKIPQQQNSDQFKVPAFDESTIKNIASAKGKNASGNTIDLDVWDSWPLQNADGTVATYHGYQIVFALAGDPKDSNDTSVYLFYKKAGDKSIDSWKNAGRVFKDSDKFVPNDPHLKNQTQEWGGSGTLTKDGKVRLFYTDYSGKQYGKQTLTTAQVNMSQPNDNTLKVDGVEDYKSIFDGDGKIYQTVQQFIDEGGYDTGDNHTLRDPHYIEDNGHKYLVFEANTGTEDGYQGEDSLYNRAYYGGNNPFFQSEKKKLLEGSNKEKASLANGALGIIELNDDYTLKKVMKPLITSNTVTDEIERANIFKKDGKWYLFTDSRGSKMTIDGIGQDDVYMLGYVSNTLTGKYKPLNDTGLVLHMDLDPNDKTFTYSHFAVPQTKGDNVVITSYMTNRGFYEDNHSTFAPSFLVNIDGSKTSVVKDRVLEQGQLTVDED
B3: enzyme (Rattus norvegicus, UniProt P06757); chain STAGKVIKCKAAVLWEPHKPFTIEDIEVAPPKAHEVRIKMVATGVCRSDDHAVSGSLFTPLPAVLGHEGAGIVESIGEGVTCVKPGDKVIPLFSPQCGKCRICKHPESNLCCQTKNLTQPKGALLDGTSRFSCRGKPIHHFISTSTFSQYTVVDDIAVAKIDAAAPLDKVCLIGCGFSTGYGSAVQVAKVTPGSTCAVFGLGGVGLSVVIGCKTAGAAKIIAVDINKDKFAKAKELGATDCINPQDYTKPIQEVLQEMTDGGVDFSFEVIGRLDTMTSALLSCHSACGVSVIVGVPPSAQSLSVNPMSLLLGRTWKGAIFGGFKSKDAVPKLVADFMAKKFPLEPLITHVLPFEKINEAFDLLRAGKSIRTVLTF
B4: protein (Trichoderma virens, UniProt G9MQB8); chain GQVPVSVNYHFSRKCNKECLFCFHTATTSHVEKPENAKRGLTLLKQAGMKKINFAGGEPFLYPKFLGEMIDFCKETLQLESVSIVTNGSLVKEQFLQKHGRNIDILAVSCDSFNEATNIKIGRGSGDNVQKLYEIGSWCQKYDIKFKLNTVVNKFNHLEDMNDHLNALQPFRWKCFQVLIVTGENDSDKTLRNAHSLTISDDEFDRFCERHSSQTCLVPEPNRLMAKSYLILDEYMRFLDRNGQQPSKSILEVGVQQALQAVFWDEEAFVERGGIYDWNKSSCSSDSKDLEW
B5: Saccharopine reductase (Saccharomyces cerevisiae, UniProt P38999); chain MGKNVLLLGSGFVAQPVIDTLAANDDINVTVACRTLANAQALAKPSGSKAISLDVTDDSALDKVLADNDVVISLIPYTFHPNVVKSAIRTKTDVVTSSYISPALRELEPEIVKAGITVMNEIGLDPGIDHLYAVKTIDEVHRAGGKLKSFLSYCGGLPAPEDSDNPLGYKFSWSSRGVLLALRNSAKYWKDGKIETVSSEDLMATAKPYFIYPGYAFVCYPNRDSTLFKDLYHIPEAETVIRGTLRYQGFPEFVKALVDMGMLKDDANEIFSKPIAWNEALKQYLGAKSTSKEDLIASIDSKATWKDDEDRERILSGFAWLGLFSDAKITPRGNALDTLCARLEELMQYEDNERDMVVLQHKFGIEWADGTTETRTSTLVDYGKVGGYSSMAATVGYPVAIATKFVLDGTIKGPGLLAPYSPEINDPIMKELKDKYGIYLKEKTVA
Chain of UniProt Q01740 (whole entry, looked up): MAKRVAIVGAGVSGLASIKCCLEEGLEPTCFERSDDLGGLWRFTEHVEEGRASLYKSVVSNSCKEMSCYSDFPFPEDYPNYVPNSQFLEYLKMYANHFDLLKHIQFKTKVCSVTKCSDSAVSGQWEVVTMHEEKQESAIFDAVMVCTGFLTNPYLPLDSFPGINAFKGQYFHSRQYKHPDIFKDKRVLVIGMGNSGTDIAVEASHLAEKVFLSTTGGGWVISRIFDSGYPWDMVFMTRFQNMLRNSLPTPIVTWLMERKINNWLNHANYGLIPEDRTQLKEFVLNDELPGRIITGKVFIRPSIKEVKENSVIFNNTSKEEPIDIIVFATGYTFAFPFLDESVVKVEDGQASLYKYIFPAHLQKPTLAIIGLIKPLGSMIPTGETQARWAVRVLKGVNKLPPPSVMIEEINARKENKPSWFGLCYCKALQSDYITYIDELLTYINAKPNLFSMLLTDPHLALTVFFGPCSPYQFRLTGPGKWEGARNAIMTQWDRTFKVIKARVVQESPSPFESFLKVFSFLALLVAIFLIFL
Chain of UniProt P0AB87 (whole entry, looked up): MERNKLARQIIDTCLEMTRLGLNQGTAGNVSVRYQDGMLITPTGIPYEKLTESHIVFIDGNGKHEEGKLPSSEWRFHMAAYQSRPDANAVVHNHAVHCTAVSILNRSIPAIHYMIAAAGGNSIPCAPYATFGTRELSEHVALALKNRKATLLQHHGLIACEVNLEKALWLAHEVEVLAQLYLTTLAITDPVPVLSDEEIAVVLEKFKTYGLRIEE
Chain of UniProt Q8KN33 (whole entry, looked up): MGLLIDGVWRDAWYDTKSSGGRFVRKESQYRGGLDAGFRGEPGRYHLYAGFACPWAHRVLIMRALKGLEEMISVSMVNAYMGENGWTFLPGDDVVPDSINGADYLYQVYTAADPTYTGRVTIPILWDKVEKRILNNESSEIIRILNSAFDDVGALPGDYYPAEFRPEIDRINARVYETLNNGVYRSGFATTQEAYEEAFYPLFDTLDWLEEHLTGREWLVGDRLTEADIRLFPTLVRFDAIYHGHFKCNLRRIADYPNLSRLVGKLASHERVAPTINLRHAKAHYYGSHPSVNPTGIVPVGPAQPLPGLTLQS
Chain of UniProt Q99042 (whole entry, looked up): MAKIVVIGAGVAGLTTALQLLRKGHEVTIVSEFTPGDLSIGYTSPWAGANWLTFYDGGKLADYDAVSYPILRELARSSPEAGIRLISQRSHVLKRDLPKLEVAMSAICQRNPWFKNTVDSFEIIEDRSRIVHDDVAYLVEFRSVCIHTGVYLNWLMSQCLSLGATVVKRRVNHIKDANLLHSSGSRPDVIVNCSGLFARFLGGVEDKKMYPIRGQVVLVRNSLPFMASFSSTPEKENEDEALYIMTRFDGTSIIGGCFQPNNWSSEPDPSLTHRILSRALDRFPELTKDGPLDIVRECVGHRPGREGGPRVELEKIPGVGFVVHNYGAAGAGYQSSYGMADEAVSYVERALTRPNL
Chain of UniProt A1ZAW0 (whole entry, looked up): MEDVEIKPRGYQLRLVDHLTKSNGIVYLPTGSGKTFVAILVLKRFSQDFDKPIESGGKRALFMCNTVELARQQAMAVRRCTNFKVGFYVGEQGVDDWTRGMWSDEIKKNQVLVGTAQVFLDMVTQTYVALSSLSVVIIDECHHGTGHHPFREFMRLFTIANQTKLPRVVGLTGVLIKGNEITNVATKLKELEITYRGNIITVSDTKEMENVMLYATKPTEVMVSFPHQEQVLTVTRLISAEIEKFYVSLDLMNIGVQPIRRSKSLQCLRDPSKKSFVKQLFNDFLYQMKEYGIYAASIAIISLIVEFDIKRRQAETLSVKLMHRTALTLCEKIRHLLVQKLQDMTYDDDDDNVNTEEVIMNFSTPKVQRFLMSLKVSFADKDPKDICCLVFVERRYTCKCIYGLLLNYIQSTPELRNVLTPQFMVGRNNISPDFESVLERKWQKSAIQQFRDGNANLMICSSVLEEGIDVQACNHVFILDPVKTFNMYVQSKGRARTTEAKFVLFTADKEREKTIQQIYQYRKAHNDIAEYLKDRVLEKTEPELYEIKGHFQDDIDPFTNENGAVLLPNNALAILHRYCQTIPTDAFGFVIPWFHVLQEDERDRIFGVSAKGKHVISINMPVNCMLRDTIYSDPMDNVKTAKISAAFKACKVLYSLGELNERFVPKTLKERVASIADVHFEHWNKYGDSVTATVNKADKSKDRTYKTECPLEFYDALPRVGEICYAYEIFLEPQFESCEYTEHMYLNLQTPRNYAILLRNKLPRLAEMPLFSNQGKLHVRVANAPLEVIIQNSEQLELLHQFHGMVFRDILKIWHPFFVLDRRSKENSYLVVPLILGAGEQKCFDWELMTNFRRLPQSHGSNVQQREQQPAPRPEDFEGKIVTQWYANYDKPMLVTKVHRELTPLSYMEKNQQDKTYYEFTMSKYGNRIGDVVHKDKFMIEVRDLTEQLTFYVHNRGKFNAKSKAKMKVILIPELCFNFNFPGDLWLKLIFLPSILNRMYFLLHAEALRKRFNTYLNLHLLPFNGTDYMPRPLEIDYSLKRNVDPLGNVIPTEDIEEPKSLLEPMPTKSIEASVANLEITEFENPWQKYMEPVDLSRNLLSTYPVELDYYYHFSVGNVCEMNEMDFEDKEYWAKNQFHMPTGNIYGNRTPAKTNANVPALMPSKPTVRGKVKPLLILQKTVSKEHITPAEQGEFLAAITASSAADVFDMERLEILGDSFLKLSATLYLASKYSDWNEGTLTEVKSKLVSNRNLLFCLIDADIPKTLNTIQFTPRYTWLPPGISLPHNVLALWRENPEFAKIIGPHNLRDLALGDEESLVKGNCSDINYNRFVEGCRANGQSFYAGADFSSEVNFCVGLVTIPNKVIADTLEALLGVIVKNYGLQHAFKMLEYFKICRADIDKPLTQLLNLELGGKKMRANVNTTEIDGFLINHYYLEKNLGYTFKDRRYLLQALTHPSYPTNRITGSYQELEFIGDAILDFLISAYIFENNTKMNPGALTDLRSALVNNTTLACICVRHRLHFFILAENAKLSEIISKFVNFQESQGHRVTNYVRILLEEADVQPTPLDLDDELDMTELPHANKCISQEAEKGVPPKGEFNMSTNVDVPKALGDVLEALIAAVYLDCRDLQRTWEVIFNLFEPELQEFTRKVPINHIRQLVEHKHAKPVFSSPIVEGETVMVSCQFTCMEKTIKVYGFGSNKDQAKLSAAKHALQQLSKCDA

Substance | substrate | sample | pH | temperature | setting | added | Km
DAO1 (Trigonopsis variabilis, UniProt Q99042) | Nc1ccc2nc3ccc(N)cc3[s+]c2c1 | – | pH 8 | 22 °C | apparent | – | 32 µM
B1 (enzyme) | CC[C@@]1(O)C[C@H](O[C@H]2C[C@H](N)[C@H](O)[C@H](C)O2)c2c(O)c3c(c(O)c2[C@H]1C(=O)O)C(=O)c1cccc(O)c1C3=O | – | pH 7.5 | 30 °C | – | – | 12 µM
B2 (sacB S173G) | OC[C@H]1O[C@@](CO)(O[C@H]2O[C@H](CO)[C@@H](O)[C@H](O)[C@H]2O)[C@@H](O)[C@@H]1O | – | pH 6.6 | – | – | – | 27700 µM
fucA (Escherichia coli, UniProt P0AB87) | CSC[C@@H](O)[C@@H](O)C(=O)COP(=O)(O)O | – | pH 7.8 | 30 °C | – | – | 1160 µM
FMO1 (Homo sapiens, UniProt Q01740) | CN1CCC[C@H]1c1cccnc1 | HEK293 microsomes | – | 37 °C | not purified | NADPH regenerating system | 800 µM
B3 (enzyme) | CC(C)CCO | – | pH 7.3 | 37 °C | – | – | 42 µM
B4 (protein) | Nc1ccn([C@@H]2O[C@H](COP(=O)(O)OP(=O)(O)OP(=O)(O)O)[C@@H](O)[C@H]2O)c(=O)n1 | – | pH 7.5 | – | KCl 150 mM | SAM 1 mM, dithionite 5 mM | 2.4 µM
enzyme (Agrobacterium fabrum, UniProt Q7CU96) | O=C(O)C(=O)C[C@@H](O)[C@H](O)C(=O)O | – | pH 7.9 | – | – | – | 27 µM
Dcr-2 (Drosophila melanogaster, UniProt A1ZAW0) | Nc1ncnc2c1ncn2[C@@H]1O[C@H](COP(=O)(O)OP(=O)(O)OP(=O)(O)O)[C@@H](O)[C@H]1O | – | pH 7.4 | 25 °C | – | dsRNA, magnesium acetate 3.3 mM | 14 µM
B5 (Saccharopine reductase) | N[C@@H](CCCCN[C@@H](CCC(=O)O)C(=O)O)C(=O)O | – | pH 9 | 25 °C | – | saccharopine | 770 µM
pcpF (Sphingobium chlorophenolicum, UniProt Q8KN33) | N[C@@H](CS)C(=O)O | – | pH 6.5 | – | – | GS-TriCH, ascorbic acid 2 mM | 1970 µM
oxalate oxidase (Gelatoporia subvermispora, UniProt Q5ZH56) | O=C(O)C(=O)O | – | pH 4 | – | – | oxalate 0.01-90 mM | 1500 µM

Some of these lines once more:
Substance | substrate | sample | pH | temperature | setting | added | Km
B5 (Saccharopine reductase) | N[C@@H](CCCCN[C@@H](CCC(=O)O)C(=O)O)C(=O)O | – | pH 9 | 25 °C | – | saccharopine | 770 µM
